Measurements pooled from the literature.
Parts stem from different laboratories: compare values within a part only. Changes are numbered by the printed parent chain.

Study 1 — target: CCNB2, cyclin fold, Cln2 fusion (human); method: yeast growth competition, sequencing; sample: yeast; setting: weak parent motif; relative to: not given; direction: higher = stronger binding; measurement: normalised enrichment score
Parent: RB1 docking peptide (human); PKPLKKLRFDIEG; partner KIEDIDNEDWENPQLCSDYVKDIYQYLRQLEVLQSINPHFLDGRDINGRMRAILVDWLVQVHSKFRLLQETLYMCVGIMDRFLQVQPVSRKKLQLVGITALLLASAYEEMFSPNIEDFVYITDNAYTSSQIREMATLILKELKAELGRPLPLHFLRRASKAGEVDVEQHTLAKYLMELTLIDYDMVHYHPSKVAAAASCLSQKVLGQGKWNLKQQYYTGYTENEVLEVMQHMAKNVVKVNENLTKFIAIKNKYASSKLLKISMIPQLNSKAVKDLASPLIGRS
PKPLKKLRFDICG [E12C]: 0.539
PKPLKKLYFDIEG [R8Y]: 0.661
PKPLWKLRFDIEG [K5W]: 0.253
VKPLKKLRFDIEG [P1V]: 0.2
PKPLKKLRFDITG [E12T]: 0.517
PKPLKKLRFDIEI [G13I]: 0.56
PKPLKKPRFDIEG [L7P]: 0.293
AKPLKKLRFDIEG [P1A]: 0.432
PKFLKKLRFDIEG [P3F]: -0.176
PKPLKKLRFDIEQ [G13Q]: 0.941
PKPLKKLGFDIEG [R8G]: -0.449
PKPLKKLRFDLEG [I11L]: 0.88
IKPLKKLRFDIEG [P1I]: 0.247
PPPLKKLRFDIEG [K2P]: 0.467
PKPLKKLRFYIEG [D10Y]: 0.36
PKPLKKLRYDIEG [F9Y]: -0.382
PKPLKKARFDIEG [L7A]: 0.498
PKPCKKLRFDIEG [L4C]: 0.386

Study 2 — method: universal PBM; form: double-stranded DNA, one strand shown; sample: in vitro; tested at: not given; direction: higher = stronger binding; measurement: E-score
Target: Sal-like protein 4, full length isoform B (SALL4, Homo sapiens, UniProt Q9UJQ4-2, residues 1-616)
Setting: 8-mer, flanks averaged, mean of replicates
AATTGTCG: -0.0341
CAAGGGCC: -0.239
AATTGCAG: 0.123
TCGACAGA: 0.101
CGGAGATC: -0.279
CGTAAGAC: -0.0112
CGGTAACC: -0.282
ACCGAGGT: -0.282
CCTTTGCA: -0.0569
TTATAGAA: 0.308
GTCAGGGA: -0.143
ATTACGTC: 0.193
GCAGCGAC: -0.386
CATGTTTA: 0.26
GAAAGCAC: -0.119
CAATGGTC: 0.00925
CTAGAGTC: -0.0673
CTGCGCAG: -0.161
CCATCTAA: -0.00018
GAGGTTCA: -0.0186

Study 3 — method: DHFR PCA, deep sequencing; sample: yeast; added: (+)-ABA 0.39 µM; relative to: wild-type fitted maximum; direction: higher = stronger binding; measurement: relative binding score
Target: ABI1, truncated, D143A, DHFR fusion (Arabidopsis thaliana)
Setting: methotrexate growth selection, single substitutions
Parent: PYL1, truncated, DHFR fusion (Arabidopsis thaliana); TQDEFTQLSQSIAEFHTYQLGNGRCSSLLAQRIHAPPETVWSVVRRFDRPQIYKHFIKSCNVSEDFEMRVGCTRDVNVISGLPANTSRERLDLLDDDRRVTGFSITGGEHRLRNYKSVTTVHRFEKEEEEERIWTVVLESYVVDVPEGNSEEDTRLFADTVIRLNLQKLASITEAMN
A30L: 33.6%
Y115P: -10.1%
G21I: 28.1%
L112N: -14.7%
I105Y: -11.7%
D3W: 31.2%
L112V: -13.7%
V161K: 16.3%
T39F: 6.57%
E130H: 45.3%
H55K: 48.2%
L28K: 3.52%
V70N: -7.02%
P37C: 9.92%
F66C: 16.5%
V70M: 2.87%
R99D: -1.76%

Study 4 — method: aptamer microarray, sandwich; form: DNA with 2'F-ANA; sample: in vitro; tested at: 200 nM; added: Cy3 exosite-II aptamer, 400 nM; direction: higher = stronger binding; measurement: mean fluorescence intensity; strand: GGTTGGTGTGGTTGG
Target: Prothrombin, mature alpha-thrombin (F2, Homo sapiens, UniProt P00734)
Setting: whole 15-mer aptamer, many near background
2'F-ANA at 2 3 4 5 6 7 8 10 12 14 15: 52.3 a.u.
2'F-ANA at 1 4 5 6 8 9 11 12 13: 63.7 a.u.
2'F-ANA at 1 2 3 4 6 7 8 14 15: 73 a.u.
2'F-ANA at 7 10 13 14 15: 122 a.u.
2'F-ANA at 2 3 4 5 7 8 11 13 14 15: 73.2 a.u.
2'F-ANA at 1 3 6 7 10 12 14 15: 61.2 a.u.
2'F-ANA at 3 4 10 11: 345 a.u.
2'F-ANA at 1 2 4 5 11 14: 42.9 a.u.
2'F-ANA at 4 5 7 8 9 10 14: 58.2 a.u.
2'F-ANA at 3 4 5 6 9 10 11 15: 55.4 a.u.
2'F-ANA at 1 2 3 4 5 6 7 11 15: 51.7 a.u.
2'F-ANA at 1 2 6 7 9 10 12 15: 70.5 a.u.
2'F-ANA at 2 5 8 10 11 13: 87.1 a.u.
2'F-ANA at 1 3 4 7 10 12 14: 54.3 a.u.
2'F-ANA at 3 4 7 8 10 11 15: 295 a.u.
2'F-ANA at 3 4 5 7 8 12: 271 a.u.
2'F-ANA at 1 2 3 5 6 8 10 11 13 15: 86.8 a.u.

Study 5 — method: RNA Bind-n-Seq; form: RNA; sample: in vitro; tested at: 365 nM; relative to: no-protein control; direction: higher = stronger binding; measurement: RBNS enrichment (R)
Target: RNA binding protein fox-1 homolog 2, RRM domain, GST-SBP tag (RBFOX2, Homo sapiens, UniProt O43251-10, residues 100-194)
Setting: natural RNA segment, single round, ends assumed
All sequences stand within: GGGAGUUCUACAGUCCGACGAUC … UGGAAUUCUCGGGUGCCAA
Construct (chain): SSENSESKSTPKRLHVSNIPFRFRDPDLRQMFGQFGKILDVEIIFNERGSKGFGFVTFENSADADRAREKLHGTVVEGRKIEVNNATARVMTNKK
GGCUCUGGGCCCUCGUCCACCGGGCCAAGUGGAGCCCCGCUUCAAGCUCUCUGUUCAGCUCCGCGUUCUCAUGCUUCUCAUGGGGUGGGAAAAGGGGGCAAAGCCCCCAC: 0.39
CAAAGGGGAACCUUGCUUCUGUGGUAGUAGAGGAGCAUUGUGCCUGGAAUUUCAGGAACUAUUGGAGCACGGCACAAUUGAUGCACAGGUAUUUCCUCCUGGCCCUUUUG: 0.576
UCUGGGGGACUCCUUCCUUGAACCCUAAUAAGACCCCACUGGAGUCUCUCUCUCUCCAUCCCUCUCCUCUGCCCUCUGCUCUAAUUGCUGCCAGGAUUGUCACUCCAAAC: 0.948
CGUGUCUGGCGUUGUGGGGAUGAACUUUUUGUUUUGUUUCUUCCUUUUUUAGUUCUUCAAAGAUAGGGAGGGAAGGGGGAACAUGAGCCUUUGUUGCUAUCAAUCCAAGA: 0.377
GGUCUGAGGCUAUCCCUCAGCCAUGCAUAAAGUCCAAGAGAACCAACUGGCUCCUGGUCUCUAGCCUGUGACCGGCUUGCUUAAUGUCCUCAGAACCUGACAGGUAUGUU: 0.449
CCCCUUCCCCAGCCCUUAGCACAGAGAGGGACACAUGCCCCUCCCCCAGCUGCGUUUUUUUAUAGUAGAUUUUUAACAAAAAACGGGGAGAAAUAAUGCAUUUCUGUGGA: 0.701
AGUCUGUAAGGCCCAAAGUGGGUACAGACAGCCUGGGCUGGUAAAAGUAGGUCCUUAUUUACAAGGCUGCGUUAAAGUUGUACUAGGCAAACACACUGAUGUAGGAAGCA: 1.96
CAAUGAAAUGUCACAUUAUUCAUCCUGAGUCCGAGACUCAAAUUUUCUGCCCCAGCCAAAAUAAUCUUGUGCCAAAAGAUUAAAGGUUUGCCUCAAAAUGUCCCUGUUUG: 0.667
UCUAGCAGGCUGGAGUGAAGGGGGGAGAGGGCUGUGGCAGAGGUGAGGGUUUCGCUAGAACCAUUUUGUGAUUGCCACCAGCCAAGAUGGACUUUCUUCCCACCCCUUGC: 0.948
UUAUCUAAACAGUUGCAGAGAUUUUUAUAUUUGUAGAAAGCAUCAAGAACGGUAUGCCAGUCAGGUCCUGGAAGUAAAAUGGAGGCACAAUAUAGCACUGACUGAGUUGU: 1.82
CAUUGACCUUGGUCAAGCAUCUUAAAGAAGGCAACCCUAAUUGAGAGCUGUCUUGGCUAAUACUCUGCACCACAAUUGUGAUGUCCUAGUCCUACCACUAGAGGGCAUGG: 0.245
UGUUUACUACCGUGGUUCCUACAGGGCAGAAACGGAUAAUGGUGUUGUGUGGUACACCUGGCAUGGGUGGUGGUAUUCCUUGAAAUCUGUGGUUAUGAAAAUUAGGCCAA: 7.73

Study 6 — method: protein binding microarray; form: double-stranded DNA, one strand shown; sample: in vitro; tested at: not given; relative to: not given; direction: higher = stronger binding; measurement: E-score
Target: Histone acetyltransferase KAT6A, winged helix 1, GST fusion (KAT6A, Homo sapiens, UniProt Q92794, residues 1-85)
Setting: 8-mer, flanks averaged, mean of 2 arrays, mostly near background
Residues (chain): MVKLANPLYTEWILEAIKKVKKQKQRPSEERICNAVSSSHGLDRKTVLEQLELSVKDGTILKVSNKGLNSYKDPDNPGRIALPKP
AGCGGAGC: 0.211
GAGAGATC: -0.192
GCCAGCAC: -0.0408
AACTGGCC: -0.00167
GACAACAC: -0.173
CCAACATA: -0.0568
GATGGTCC: -0.0595
CGATAAGC: 0.17
AGTCTGAT: -0.274
AGTGCATA: -0.0987
ATGAGTTC: -0.0286
ATCGCAAG: -0.0633
AAGACGCT: 0.0527
CTAGACAA: -0.206
TATGAGCA: -0.212
AAAGGCAT: -0.141
CTGCCTGC: -0.158
ATCTACGG: 0.32

Some of these lines once more (study 4):
2'F-ANA at 2 3 4 5 7 8 11 13 14 15: 73.2 a.u.
2'F-ANA at 1 3 6 7 10 12 14 15: 61.2 a.u.
2'F-ANA at 3 4 10 11: 345 a.u.
2'F-ANA at 1 2 4 5 11 14: 42.9 a.u.
2'F-ANA at 4 5 7 8 9 10 14: 58.2 a.u.
2'F-ANA at 3 4 5 6 9 10 11 15: 55.4 a.u.
2'F-ANA at 1 2 3 4 5 6 7 11 15: 51.7 a.u.
